Published values from different studies.
Numbered parts are unrelated; each lists some results of a single study.

Set 1
Target: Prothrombin, mature alpha-thrombin (F2, Homo sapiens, UniProt P00734)
Method: aptamer microarray, sandwich
Molecule type: DNA with 2'F-ANA
Sample: in vitro
Tested at: 200 nM
Notes: whole 15-mer aptamer, many near background
Added: Cy3 exosite-II aptamer, 400 nM
Reading: higher = stronger binding
Sequence: GGTTGGTGTGGTTGG
Modification | mean fluorescence intensity [a.u.]
2'F-ANA at 3 5 7 8 9 11 12 14 | 91.4
2'F-ANA at 2 4 6 7 8 9 13 | 203
2'F-ANA at 3 8 10 11 12 13 15 | 573
2'F-ANA at 1 3 5 6 8 11 12 | 110
2'F-ANA at 3 7 8 11 13 15 | 1080
2'F-ANA at 3 4 5 6 7 8 9 10 11 13 | 50.3
2'F-ANA at 1 4 5 10 12 14 15 | 45.4
2'F-ANA at 1 2 4 7 8 9 15 | 339
2'F-ANA at 1 2 4 5 7 10 12 13 14 15 | 51.3
2'F-ANA at 2 5 8 10 12 13 14 15 | 47
2'F-ANA at 1 2 4 6 10 11 12 | 54.6

Set 2
Target: Histone acetyltransferase KAT6A, winged helix 1, GST fusion (KAT6A, Homo sapiens, UniProt Q92794, residues 1-85)
Method: protein binding microarray
Molecule type: double-stranded DNA, one strand shown
Sample: in vitro
Tested at: not given
Notes: 8-mer, flanks averaged, mean of 2 arrays, mostly near background
Reference: not given
Reading: higher = stronger binding
Target sequence (chain): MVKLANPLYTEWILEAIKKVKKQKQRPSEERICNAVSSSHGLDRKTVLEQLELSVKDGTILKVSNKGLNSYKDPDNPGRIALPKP
Sequence | E-score
CGAAGGCA | -0.187
ACTAAAGG | -0.204
CCTCGGTC | -0.117
AAACAGCG | 0.0587
GGGTTTAC | 0.0894
CCCCTCCG | -0.0271
ACACTCCA | -0.104
ATCATGCA | -0.0949
CTAGACCC | -0.0368

Further values, each from its own experiment
Molecule | tested on | assay | test system | setting | how to read | measurement | value
PhoQ, residues 284 288 289 292 302 303 NLSRDF | PhoP, residues 12 14 15 18 19 NMSSL (Escherichia coli, UniProt P23836) | Sort-seq, measured: YFP reporter | E. coli | PhoQ-PhoP variant library, added: 10 µM Mg2+ | reference: high Mg2+ state, higher = stronger signaling | fold induction | 6.69
GTF2H1 (Homo sapiens, UniProt P32780) | XPC (Homo sapiens, UniProt Q01831) | cross-linking MS | cell fractions | added: DMTMM |  | cross-linked residues | K102 to E149

Some of these lines once more (set 2):
Sequence | E-score
ACTAAAGG | -0.204
CCTCGGTC | -0.117
